Measured values gathered from unrelated publications.
Each numbered part is a random draw from the data of one study; scales do not carry over between parts.

Block 1 — technique: RNA Bind-n-Seq; form: RNA; medium: in vitro; concentration: 365 nM; baseline: no-protein control; reading: higher = stronger binding; measurement: RBNS enrichment (R)
Target: RNA binding protein fox-1 homolog 2, RRM domain, GST-SBP tag (RBFOX2, Homo sapiens, UniProt O43251-10, residues 100-194)
Notes: natural RNA segment, single round, ends assumed
All sequences stand within: GGGAGUUCUACAGUCCGACGAUC … UGGAAUUCUCGGGUGCCAA
Target sequence (chain): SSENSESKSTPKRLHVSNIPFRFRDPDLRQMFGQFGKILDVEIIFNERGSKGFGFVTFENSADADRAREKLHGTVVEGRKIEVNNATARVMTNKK
UGACAUUUUAAGUACAACUUUUAAGGACUAAUUACUGUGAUGGACACAGAAAUGUAGCUGUGUUCUGGAACUGAAUCUUACAUGGUAUACUUAGUGCUGCUGGGUAAUUU: 0.349
UUUGGAGUAAAACAAACUUCUAGCUUUAGCCAGGUGUGCAUGUUGUCGCCAUUUGCAUUUUGAGUCAUCUUGUGUAAAUGUCACCAUGAAAGUGUUACUCAGAAUUGUCA: 1.66
CUCUUACUUCACUGUGGAGGGACUUCGAGCAUCAGGUGGCUCUCUCAUGUUCCUGCCCCCUUUACUCCAUGCCAAACCUGGGAUUAGACAGCCUGCUGGCUCCAGAAAAA: 0.278
AGGGGUAUUAUCUGAACAAUAUAAAAACAGAAUGAAGCAAGCUAAUCUGAAUCAUCACUUUAGGGUAUCCAUAGCCUAAGAAAUGUGUCAGAAGAUCUAAAGCCUUCCUU: 0.386
ACCUAUUGCAUUCUUAGGCUACUGUGAGGUCUAUGUUUCUUGUACCUGAAAUUGUCCUUUGGACUCCUAGACCCUUCUUCCCCGAUGUGUUUUGUAUGUGGUUAUAAAAU: 0.982
CAUUUCUACCUCCAAAGUCAUCAGAGCCUGCUUGUCCACAUCUGGUCCAGGUGGGAGUACAAGGAAGGCUGCUUCUACACCCAUGAGCACAAAUACGUCUGUGUGGGACA: 0.304
GAGCAGAACAGGUUUGUCAUCUCCGCAAGGCCAGAAAGUGAUCACAAAAAGAGGCAGAUGAUAGACACUGGGGUAGGGUCAUACCACAGGGAAAUACCUUUCCUGGGCUU: 0.379
CUUCACCCUGUCCCCAGACGGGGGAACCCGUGGGUCAGGCGUGGAUAAGCCUGCGAGAAUACACCCUUUCUCCAUUCACUUUCUAUUUACAAAUUAGGAAAGCAACCUUU: 0.279
AAGUGGGACGGAUGAUGAGUGUCAGUAUGGACCUUUUUCCUUGGUAGAACUGAAUUCCUUCCUCCCCUGUCUCAUUUCUACCCAGUGAGUUCAUUUGUCAUAUAGGCACU: 0.693
UCAUGCUUCUUCUCAUGGGGUGGGGUUGGGGCAAAGCCUCCUUUUUAAUACAUUAAGUGGGGUAGACUGAGGGAUUUUAGCCUCUUCCCUCUGAUUUUUCCUUUCGCGAA: 0.447
CGUCUUCCGUGGGACUGUCCCCAAGGCUGAGGCUCCUGCCAAGUCCUAGGGGCCUCUGUACCUGCCCUGCUGGAAGCCCUGACUUCCCCGGGGCCCCAGGCUGUGUUAGG: 0.438
AAAAGUUAACUUGUAUUAUGUAUUUUUACUACACUUUUCUUAAAAAUAGAGCAUUGGGAAAACUCUGAAAGAGACUGACAUUUUUCUCAACAGGAAUCCAUACUUAACAG: 0.58

Block 2 — technique: protein-binding microarray; form: double-stranded DNA, one strand shown; medium: in vitro; concentration: 2540 nM top; notes: 60-bp whole probe; added: salmon DNA 0.4 mg/ml; baseline: random background probes; reading: higher = stronger binding; measurement: fitted relative affinity; all sequences stand within: GCCTAGCAC … GTCTTGATTCGCTTGACGCTGCTG
Target: Interferon regulatory factor 3, full length, phosphomimetic (IRF3, Homo sapiens, UniProt Q14653, residues 1-427, S386D/S396D/S398D/S402D/T404D/S405D)
Residues (chain): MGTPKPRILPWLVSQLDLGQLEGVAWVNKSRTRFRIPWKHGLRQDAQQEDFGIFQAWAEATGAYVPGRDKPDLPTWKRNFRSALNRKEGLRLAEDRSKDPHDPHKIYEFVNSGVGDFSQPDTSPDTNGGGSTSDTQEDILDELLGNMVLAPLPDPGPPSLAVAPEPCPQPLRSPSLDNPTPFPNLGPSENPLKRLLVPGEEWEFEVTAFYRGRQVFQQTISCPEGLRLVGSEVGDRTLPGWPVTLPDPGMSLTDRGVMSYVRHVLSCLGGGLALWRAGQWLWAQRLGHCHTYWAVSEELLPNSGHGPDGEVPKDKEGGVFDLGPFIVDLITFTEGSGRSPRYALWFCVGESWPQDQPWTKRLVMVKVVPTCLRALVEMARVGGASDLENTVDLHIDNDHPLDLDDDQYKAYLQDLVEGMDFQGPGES
TTAGGTTTCCTTTTCATTTAGTGCTAG: 11.7 z-score
TCAGATTTCAGGAATTGAACTGTGCTA: 0.523 z-score
GGATGTGTCTTAAATAGGGCAGTGCTA: 0.193 z-score
GACGGTTCCGGTTTTGGGACGTGCTAG: 4.36 z-score
TTTGCTTTCCTTCATGCACTGTGCTAG: 3.02 z-score
TTCGGTATCCTTTTCCTTTAGTGCTAG: 8.26 z-score
GACGGTTTCAGACTGGGGACGTGCTAG: 2.58 z-score
GACGATATCGGGACTGTAGACGTGCTA: 0.242 z-score
TTAGTTATCGGTATCGGTTAGTGCTAG: 3.74 z-score
GACCATATCAGTCTCGAGACGTGCTAG: 1.84 z-score
TCATGTTTCCTTGTACGACTGTGCTAG: 3.98 z-score
TTAGAACTGGGGTTTCGAGTAGTGCTA: -0.13 z-score
GACGCTATCGGTTTCGGGACGTGCTAG: 4.63 z-score
CAATACCTTATGAATGTGTTGTGCTAG: 0.832 z-score
TCATCAATCATTTTCGTACTGTGCTAG: 1.09 z-score
TCATAAATCTTTTTCCCACTGTGCTAG: 1.01 z-score
TCATTTTACATTATTACACTGTGCTAG: 2.44 z-score
TTAGGACTGGGTATCGGCTAGTGCTAG: -0.639 z-score
AACGGTCTCGGTTTCGGGACGTGCTAG: 4.02 z-score
GACGATTTTAGTCTCGAGACGTGCTAG: 0.941 z-score
GACGATTTTAGTTCCGAGACGTGCTAG: 1.54 z-score
GACGGTATCGGATTTCGGGACGTGCTA: 3.67 z-score
ACGAGTTTCTATTTTCTGAAGTGCTAG: 4.08 z-score
GACTTTCTTTCAAATGAAGGAGTGCTA: 1.59 z-score
GACGATTTCAGTTCCGATACGTGCTAG: 3.62 z-score

Block 3 — technique: protein binding microarray; form: double-stranded DNA, one strand shown; medium: in vitro; concentration: not given; baseline: not given; reading: higher = stronger binding; measurement: E-score
Target: Histone acetyltransferase KAT6A, winged helix 2, GST fusion (KAT6A, Homo sapiens, UniProt Q92794, residues 85-181)
Notes: 8-mer, flanks averaged, mean of 2 arrays, mostly near background
Target sequence (chain): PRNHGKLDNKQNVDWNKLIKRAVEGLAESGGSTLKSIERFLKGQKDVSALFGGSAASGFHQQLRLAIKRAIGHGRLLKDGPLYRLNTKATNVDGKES
AAGCGGTA: 0.0137
ACGCGCAC: 0.0465
CCGTCTAG: 0.0175
ACACACGA: -0.141
TGAGATCA: 0.135
TGGCCACA: 0.009
ATCTGCGA: 0.0124
CAATACTG: -0.0628
TGACGAAA: 0.191
CTAATTCA: 0.0209
AACCCCTT: -0.113
AGGATTAG: 0.0588
ACACGTTC: -0.148
CCTTGACC: 0.0898
AGCAGCCC: 0.143
TACAGCTA: -0.229
AGGAACTA: -0.214

Block 4 — technique: aptamer microarray, sandwich; form: DNA with 2'F-ANA; medium: in vitro; concentration: 200 nM; added: Cy3 exosite-II aptamer, 400 nM; reading: higher = stronger binding; measurement: mean fluorescence intensity; sequence: GGTTGGTGTGGTTGG
Target: Prothrombin, mature alpha-thrombin (F2, Homo sapiens, UniProt P00734)
Notes: whole 15-mer aptamer, many near background
2'F-ANA at 2 3 5 11 12 13 15: 121 a.u.
2'F-ANA at 1 2 3 4 10 11 14 15: 46.6 a.u.
2'F-ANA at 1 2 6: 165 a.u.
2'F-ANA at 1 3 9 11 12 13 14: 127 a.u.
2'F-ANA at 1 2 6 8 9 12 13: 257 a.u.
2'F-ANA at 1 3 5 8 11 12 13 14 15: 64.7 a.u.
2'F-ANA at 1 4 8 10 11 12 15: 57.4 a.u.
2'F-ANA at 1 2 3 5 9 11 13 14 15: 64.2 a.u.
2'F-ANA at 1 2 3 4 6 7 8 12 13: 271 a.u.
2'F-ANA at 1 2 3 4 7 8 9 10 12 13: 66.8 a.u.
2'F-ANA at 4 6 7 9 10 11 12 14: 63.8 a.u.

Block 5 — technique: protein-binding microarray; form: double-stranded DNA, one strand shown; medium: in vitro; concentration: not given; reading: higher = stronger binding; measurement: E-score
Target: Protein C-ets-1 (ETS1, Homo sapiens, UniProt P14921, residues 1-441, K379A, full length assumed)
Notes: k-mer, scored over probes, only values ≥0.25
Residues (chain): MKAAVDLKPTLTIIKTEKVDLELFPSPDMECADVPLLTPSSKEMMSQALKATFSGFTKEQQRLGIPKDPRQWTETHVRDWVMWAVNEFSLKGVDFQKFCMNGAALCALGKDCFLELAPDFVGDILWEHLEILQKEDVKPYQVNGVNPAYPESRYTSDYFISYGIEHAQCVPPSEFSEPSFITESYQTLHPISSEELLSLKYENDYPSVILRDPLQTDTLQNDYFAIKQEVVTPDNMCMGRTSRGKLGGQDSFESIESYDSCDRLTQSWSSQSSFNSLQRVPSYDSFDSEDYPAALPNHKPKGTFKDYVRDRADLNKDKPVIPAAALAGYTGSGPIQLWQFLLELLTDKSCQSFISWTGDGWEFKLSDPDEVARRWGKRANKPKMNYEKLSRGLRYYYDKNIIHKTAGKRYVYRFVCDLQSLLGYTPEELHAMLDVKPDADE
AATATCGT: 0.259
ATATACAG: 0.297
GCCGGCGC: 0.312
AAATGGTA: 0.273
ATACTGTA: 0.252
AGCGACAC: 0.274
ATCCGGAT: 0.305
ATTTCCTG: 0.279
TACCGACA: 0.435
TACAGCTA: 0.257
ATAATTAT: 0.26
TGACGGAA: 0.294
ACCGGAGA: 0.332
ATGCCGGA: 0.323
CATCCGGG: 0.35
TCCGGTCA: 0.376
GGATATAA: 0.261

Block 6 — technique: universal PBM; form: double-stranded DNA, one strand shown; medium: in vitro; concentration: 600 nM; reading: higher = stronger binding; measurement: E-score
Target: Sal-like protein 4, full length isoform A (SALL4, Homo sapiens, UniProt Q9UJQ4, residues 1-1053)
Chain of UniProt Q9UJQ4 (whole entry, looked up): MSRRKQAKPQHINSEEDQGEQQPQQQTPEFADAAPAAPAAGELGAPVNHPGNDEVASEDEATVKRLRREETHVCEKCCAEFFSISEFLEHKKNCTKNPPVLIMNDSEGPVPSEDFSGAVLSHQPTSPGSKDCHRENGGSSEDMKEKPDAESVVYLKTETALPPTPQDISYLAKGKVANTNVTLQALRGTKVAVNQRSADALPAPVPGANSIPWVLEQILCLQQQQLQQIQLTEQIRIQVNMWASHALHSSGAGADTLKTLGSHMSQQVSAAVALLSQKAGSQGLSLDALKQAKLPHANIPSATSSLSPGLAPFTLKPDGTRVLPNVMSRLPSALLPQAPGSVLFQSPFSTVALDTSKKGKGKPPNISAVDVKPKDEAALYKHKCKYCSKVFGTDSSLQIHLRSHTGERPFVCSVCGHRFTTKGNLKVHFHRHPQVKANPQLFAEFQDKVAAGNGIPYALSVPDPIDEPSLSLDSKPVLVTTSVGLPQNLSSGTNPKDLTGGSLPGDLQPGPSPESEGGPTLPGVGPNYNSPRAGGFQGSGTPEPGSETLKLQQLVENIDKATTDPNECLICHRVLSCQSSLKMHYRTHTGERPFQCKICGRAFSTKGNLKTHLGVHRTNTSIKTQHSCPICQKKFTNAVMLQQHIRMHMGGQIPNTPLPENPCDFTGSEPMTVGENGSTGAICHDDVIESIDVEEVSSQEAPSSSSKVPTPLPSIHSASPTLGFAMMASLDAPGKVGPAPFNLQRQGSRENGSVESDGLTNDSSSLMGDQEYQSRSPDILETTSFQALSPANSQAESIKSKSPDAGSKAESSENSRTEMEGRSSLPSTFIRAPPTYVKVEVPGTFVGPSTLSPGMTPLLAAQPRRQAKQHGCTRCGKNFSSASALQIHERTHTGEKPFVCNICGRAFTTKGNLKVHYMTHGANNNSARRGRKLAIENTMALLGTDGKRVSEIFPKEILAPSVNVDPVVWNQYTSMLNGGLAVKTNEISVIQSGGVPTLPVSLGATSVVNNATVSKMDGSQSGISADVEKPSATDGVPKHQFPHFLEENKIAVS
Notes: 8-mer, flanks averaged, mean of replicates
CAGCCCTG: -0.379
TCCTTTCA: 0.108
ATTTGATG: 0.221
TATGCTCA: 0.15
AGCTTAAA: 0.087
AATGGGTA: 0.174
CTATCAGA: -0.0194
GCTAGTGA: -0.0665
TGTGCAAA: 0.142
GCTCCGCA: -0.195
CTCCCACC: -0.24

For quick reference, copied from above (block 2):
TTCGGTATCCTTTTCCTTTAGTGCTAG: 8.26 z-score
GACGGTTTCAGACTGGGGACGTGCTAG: 2.58 z-score
GACGATATCGGGACTGTAGACGTGCTA: 0.242 z-score
TTAGTTATCGGTATCGGTTAGTGCTAG: 3.74 z-score
GACCATATCAGTCTCGAGACGTGCTAG: 1.84 z-score
